Published values pooled from the literature.
Compare with care: the assays were run in different laboratories.

Compound	organism	test	test system	setting	MIC
N=C(N)NCCC[C@@H]1NC(=O)[C@H](CCCNC(=N)N)NC(=O)[C@H](CCCNC(=N)N)NC(=O)[C@@H](CCCNC(=N)N)NC(=O)[C@H](Cc2ccc3ccccc3c2)NC(=O)[C@H](Cc2ccc3ccccc3c2)NC(=O)[C@H](Cc2ccc3ccccc3c2)NC1=O	Candida parapsilosis	–	ATCC 22019	–	8 µg/mL
C=C(NC(=O)c1csc(-c2nc3c(cc2O)-c2nc(cs2)C(=O)NC(C(C)O)C(=O)NC(=C(C)OC)c2nc(cs2)C(=O)NC2c4nc(cs4)C(=O)NC(COC(=O)c4c5c6c(cccc6n4O)COC(=O)C(OC4CC(C)(O)C(N(C)C)C(C)O4)C2OC5)c2nc-3cs2)n1)C(N)=O (stereo not shown)	Staphylococcus aureus	microbial growth, agar dilution	ATCC25923	–	0.0078 µg/mL
Oc1c(Br)cc(Br)c2nc3c(C(F)(F)F)cc(C(F)(F)F)cc3nc12	Staphylococcus aureus	–	147 MRSA clinical isolate	–	0.1 µM
C=C[C@]1(C)C[C@@H](OC(=O)CSc2ccc(NC(=O)c3ccco3)cc2)[C@]2(C)[C@H](C)CC[C@]3(CCC(=O)[C@H]32)[C@@H](C)[C@@H]1O	Mycoplasma gallisepticum	–	chicken lung isolates	30 mg/kg to chickens	0.00195 µg/mL
Cc1c(CN(C)C(=O)/C=C/c2cnc3c(c2)CC(N)C(=O)N3)oc2ccccc12 (stereo not shown)	Klebsiella pneumoniae	broth microdilution	AR-0141	–	8 µg/mL
N=C(N)NCCC[C@@H]1NC(=O)[C@H](CCCNC(=N)N)NC(=O)[C@@H](CCCNC(=N)N)NC(=O)[C@H](C(c2ccccc2)c2ccccc2)NC(=O)[C@H](C(c2ccccc2)c2ccccc2)NC(=O)[C@H](C(c2ccccc2)c2ccccc2)NC(=O)[C@H](CCCNC(=N)N)NC1=O	Candida parapsilosis	–	ATCC 22019	–	4 µg/mL
CC1C=CC=CC(C)C2C=CC3CC(C)(O)C(Cl)C(C)C3C2C(=O)C(Cl)(Cl)C(=O)C(C)C(=O)O1 (stereo not shown)	Staphylococcus aureus	–	MSSA clinical isolate	resistant: DAP	0.025 µg/mL
N=C(N)NCCC[C@@H]1NC(=O)[C@H](CCCNC(=N)N)NC(=O)[C@@H](CCCNC(=N)N)NC(=O)[C@@H](CCCNC(=N)N)NC(=O)[C@@H](C(c2ccccc2)c2ccccc2)NC(=O)[C@H](Cc2c[nH]c3ccccc23)NC(=O)[C@@H](C(c2ccccc2)c2ccccc2)NC1=O	Candida parapsilosis	–	ATCC 22019	–	16 µg/mL
C[C@@H]1C(=O)O[C@@H](C)/C=C/C=C\[C@@H](C)[C@@H]2C=C[C@@H]3C[C@@]4(C)O[C@H]4[C@@H](C)[C@H]3[C@@H]2C(=O)C(Cl)(Cl)C1=O	Staphylococcus aureus	–	MRSA clinical isolate	resistant: OXA,CIP,MXF	0.1 µg/mL
CC1(C)C(NC(=O)C(=NOC2(C(=O)O)CC2)c2csc(N)n2)C(=O)N1OS(=O)(=O)O (stereo not shown)	Klebsiella pneumoniae	–	17-15, ESBL	compound alone	2 µg/mL

Some of these lines once more:
Compound	organism	test	test system	setting	MIC
Oc1c(Br)cc(Br)c2nc3c(C(F)(F)F)cc(C(F)(F)F)cc3nc12	Staphylococcus aureus	–	147 MRSA clinical isolate	–	0.1 µM
